Published values collected from several papers.
Numbers after ± are the reported error.

| Structure (SMILES) | tested on | assay | system | conditions | measurement | result |
| --- | --- | --- | --- | --- | --- | --- |
| C[C@@](O)(C(F)F)[C@H](NC(=O)c1ccc(C#CC#CC2CC2)cc1)C(=O)NO | – | – | dog, plasma | intravenous, 30 mg/kg | AUC(0-inf) | 19400 ng·h/mL |
| CC[C@H](C)[C@H](NC(=O)[C@H](CCCNC(=N)N)NC(=O)[C@H](CCCCN)NC(=O)[C@H](CC(C)C)NC(=O)[C@H](CC(C)C)NC(=O)CN)C(=O)N[C@@H](CCCCN)C(=O)N[C@H](C(=O)N[C@@H](CC(C)C)C(=O)N[C@@H](CC(C)C)C(=O)NCCCC[C@H](NC(=O)[C@H](CC(C)C)NC(=O)[C@H](CC(C)C)NC(=O)[C@@H](NC(=O)[C@H](CCCCN)NC(=O)[C@@H](NC(=O)[C@H](CCCNC(=N)N)NC(=O)[C@H](CCCCN)NC(=O)[C@H](CC(C)C)NC(=O)[C@H](CC(C)C)NC(=O)CN)[C@@H](C)CC)[C@@H](C)O)C(N)=O)[C@@H](C)O | human erythrocytes | – | – | 1 h, 37 °C, 10% haemolysis | minimum haemolytic concentration | 51.2 µM |
| CCCCC[C@@H]1OC(=O)[C@@H](C)N(C)C(=O)[C@H](CCCCC)OC(=O)[C@@H](C)N(C)C(=O)[C@H](CCCCC)OC(=O)[C@@H](C)N(C)C(=O)[C@H](CCCCC)OC(=O)[C@@H](C)N(C)C1=O | Caco-2 monolayer | Caco-2 bidirectional permeability | HBSS with <1% DMSO | 10 µM, 2 h, pH 7.4, basal-to-apical | recovery | 86% |
| CCCCCCCC(=O)NCC(=O)N[C@@H](CC(C)C)C(=O)N[C@@H](CC(C)C)C(=O)N[C@@H](CCCCN)C(=O)N[C@@H](CCCNC(=N)N)C(=O)N[C@H](C(=O)N[C@@H](CCCCN)C(=O)N[C@H](C(=O)N[C@@H](CC(C)C)C(=O)N[C@@H](CC(C)C)C(N)=O)[C@@H](C)O)[C@@H](C)CC | human erythrocytes | – | – | 1 h, 37 °C, 10% haemolysis | minimum haemolytic concentration | 211 µM |
| CN[C@](C)(C[18F])C(=O)O | DU-145 tumour model | – | host not given, pancreas | 30 min, tumour-bearing | tracer uptake | 45 %ID/g |
| CN(C)CC1CCCCC1(O)c1cccc(O)c1 (centres unmarked) | P-glycoprotein | – | Caco-2 TC7 | 1 µM, 3 h, pH 6.8 apical, 7.4 basolateral, added: cyclosporin A 10 µM | Papp B to A | 21.2 ± 0.6 ×10⁻⁶ cm/s |
| CCC(=O)N(C)c1ccc(Cl)c(Cl)c1 | Salmonella typhimurium | Ames test | TA100 | 0.50 mg/plate, with rat liver S9 | revertant colonies | 79 ± 3.1 revertants/plate |
| COc1cc(C(=O)NCCOCCOCCOCCNC(=O)c2ccc([18F])nc2)ccc1NC(=O)C1NC(CC(C)(C)C)C(C#N)(c2ccc(Cl)cc2F)C1c1cccc(Cl)c1F (centres unmarked) | HepG2 tumour model | – | host not given, kidney | 2 h, tumour-bearing | tracer uptake | 2.54 %ID/g |
| Cc1nc([C@H](NC(=O)c2ccc(-c3ccc(Cl)cc3)[nH]2)[C@@H]2CCCCN2)sc1CO | MT2 | cell growth or viability, XTT | – | – | CC50 | ~25 µM |
| Cl.Cl.Cl.Cl.Cl.Cl.Cl.Cl.Cl.Cl.Cl.Cl.NC[C@@H]1O[C@H](O[C@H]2[C@@H](O)[C@H](O[C@@H]3[C@@H](O)[C@H](N)C[C@H](N)[C@H]3O[C@H]3O[C@H](CN)[C@@H](O)[C@H](O)[C@H]3N)O[C@@H]2Cn2cc(-c3ccc(-c4cn(C[C@H]5O[C@@H](O[C@@H]6[C@@H](O)[C@H](N)C[C@H](N)[C@H]6O[C@H]6O[C@H](CN)[C@@H](O)[C@H](O)[C@H]6N)[C@H](O)[C@@H]5O[C@H]5O[C@@H](CN)[C@@H](O)[C@H](O)[C@H]5N)nn4)cc3)nn2)[C@H](N)[C@@H](O)[C@@H]1O | MT-2 | cytotoxicity | – | – | CT5 | 17 µM |
| O=C(O)CCC(NP(=O)(O)OCCC[C@@H](NC(=O)CCC(NC(=O)c1ccc([18F])cc1)C(=O)O)C(=O)O)C(=O)O (some centres unmarked) | CWR22Rv1 tumour model | – | host not given, lung | intravenous, 2 h, tumour-bearing | tracer uptake | 0.43 %ID/g |
| C[C@]12CC[C@H](OCC[18F])C[C@H]1CC[C@@H]1[C@@H]2CC[C@]2(C)[C@@H](c3ccc(=O)oc3)CC[C@]12O | SMMC-7721 tumour model | – | nude, tumour | intravenous, 7.4 MBq, 2 h, tumour-bearing | tracer uptake | 3.63 %ID/g |
| COc1ccc(CNc2nc(N3CCC[C@H]3CO)ncc2C(=O)NN)cc1Cl | Salmonella typhimurium | – | TA102 | 125 µg/plate | revertant count | 218 ± 14 |
| O=C(O)CCC(NP(=O)(O)OCCC[C@@H](NC(=O)CCC(NC(=O)CCCCCNC(=O)c1ccc([18F])cc1)C(=O)O)C(=O)O)C(=O)O (some centres unmarked) | CWR22Rv1 tumour model | – | host not given, muscle | intravenous, 2 h, tumour-bearing | tracer uptake | 0.1 %ID/g |
| CC[C@H](C)C(=O)N1CCC(NC(=O)Nc2ccc(OC(F)(F)F)c(F)c2)CC1 | – | – | healthy volunteers | oral, 8 mg single dose | subjects with laryngitis TEAE | 0% |
| COc1ccc(CNc2nc(N3CCC[C@H]3CO)ncc2C(=O)NNC(=O)c2cnc(N3CCC[C@H]3CO)nc2NCc2ccc(OC)c(Cl)c2)cc1Cl | Salmonella typhimurium | – | TA98 | 62.5 µg/plate, 48 h, added: rat liver S9 | revertant count | 36 ± 2 |
| CC[C@H](C)[C@H](NC(=O)[C@H](CCCNC(=N)N)NC(=O)[C@H](CCCCN)NC(=O)[C@H](CC(C)C)NC(=O)[C@H](CC(C)C)NC(=O)CN)C(=O)N[C@@H](CCCCN)C(=O)N[C@H](C(=O)N[C@@H](CC(C)C)C(=O)N[C@@H](CC(C)C)C(=O)NCCCC[C@H](NC(=O)[C@H](CCCCNC(=O)[C@H](CC(C)C)NC(=O)[C@H](CC(C)C)NC(=O)[C@@H](NC(=O)[C@H](CCCCN)NC(=O)[C@@H](NC(=O)[C@H](CCCNC(=N)N)NC(=O)[C@H](CCCCN)NC(=O)[C@H](CC(C)C)NC(=O)[C@H](CC(C)C)NC(=O)CN)[C@@H](C)CC)[C@@H](C)O)NC(=O)[C@H](CC(C)C)NC(=O)[C@H](CC(C)C)NC(=O)[C@@H](NC(=O)[C@H](CCCCN)NC(=O)[C@@H](NC(=O)[C@H](CCCNC(=N)N)NC(=O)[C@H](CCCCN)NC(=O)[C@H](CC(C)C)NC(=O)[C@H](CC(C)C)NC(=O)CN)[C@@H](C)CC)[C@@H](C)O)C(N)=O)[C@@H](C)O | human erythrocytes | – | – | 1 h, 37 °C, 10% haemolysis | minimum haemolytic concentration | 2.53 µM |

For quick reference, copied from above:
| Structure (SMILES) | tested on | assay | system | conditions | measurement | result |
| --- | --- | --- | --- | --- | --- | --- |
| C[C@@](O)(C(F)F)[C@H](NC(=O)c1ccc(C#CC#CC2CC2)cc1)C(=O)NO | – | – | dog, plasma | intravenous, 30 mg/kg | AUC(0-inf) | 19400 ng·h/mL |
| CC[C@H](C)[C@H](NC(=O)[C@H](CCCNC(=N)N)NC(=O)[C@H](CCCCN)NC(=O)[C@H](CC(C)C)NC(=O)[C@H](CC(C)C)NC(=O)CN)C(=O)N[C@@H](CCCCN)C(=O)N[C@H](C(=O)N[C@@H](CC(C)C)C(=O)N[C@@H](CC(C)C)C(=O)NCCCC[C@H](NC(=O)[C@H](CC(C)C)NC(=O)[C@H](CC(C)C)NC(=O)[C@@H](NC(=O)[C@H](CCCCN)NC(=O)[C@@H](NC(=O)[C@H](CCCNC(=N)N)NC(=O)[C@H](CCCCN)NC(=O)[C@H](CC(C)C)NC(=O)[C@H](CC(C)C)NC(=O)CN)[C@@H](C)CC)[C@@H](C)O)C(N)=O)[C@@H](C)O | human erythrocytes | – | – | 1 h, 37 °C, 10% haemolysis | minimum haemolytic concentration | 51.2 µM |
| CCCCC[C@@H]1OC(=O)[C@@H](C)N(C)C(=O)[C@H](CCCCC)OC(=O)[C@@H](C)N(C)C(=O)[C@H](CCCCC)OC(=O)[C@@H](C)N(C)C(=O)[C@H](CCCCC)OC(=O)[C@@H](C)N(C)C1=O | Caco-2 monolayer | Caco-2 bidirectional permeability | HBSS with <1% DMSO | 10 µM, 2 h, pH 7.4, basal-to-apical | recovery | 86% |
